Measured values of several laboratories.
Lines come from different studies, so protocols differ. Values joined by “and” are separate records of one study, mostly repeats; a detail may differ.
Target: PAS domain-containing serine/threonine-protein kinase (PASK, Homo sapiens, UniProt Q96RG2)

Compound	assay	system	setting	scale	endpoint	result
CCn1cc(C(=O)O)c(=O)c2c(N)c(F)c(NC3CCCCC3)cc21	kinase activity		0.1 µM, with: ATP at Km		inhibition	-3.1%
C=CC(=O)Nc1cccc(-c2cnc3[nH]cc(C(=O)NC(C)(C)C)c3n2)c1	kinase activity		0.1 µM		inhibition	1% and 0%
Cc1nc2c(F)cc(-c3nc(Nc4ccc(CNC(=O)CCCCCCC(=O)NO)cc4)ncc3F)cc2n1C(C)C	enzyme activity, inhibitor		1 µM		inhibition	70%
CNC(=O)C[C@H](Cc1ccc(C#N)cc1)NC(=O)c1cc(-c2ccc(CN[C@H](C)c3ccc(C)cc3)o2)ccc1Cl	enzyme activity, inhibitor		1 µM		activity vs control	101%
NC(=O)C[C@H]1CCc2sc3ncnc(O[C@H]4CC[C@H](N5CCOCC5)CC4)c3c21	enzyme activity, inhibitor		10 µM		inhibition	0%
Cc1cccc(O[C@H]2CCC[C@@H](C(C)CNCc3ccncc3)C2)c1 (relative stereo)	enzyme activity, inhibitor		10 µM		inhibition	-11%
COCC12C(=O)NC3C4(C(OC)CC1O)C1CC5(O)C(OC)C(O)C(OC(C)=O)(C1C5OC(=O)c1ccccc1)C3(O)C(OC)C24 (centres unmarked)	kinase activity, inhibitor, ProQinase kinase profiling		25 µM	relative to: control	remaining activity	98% and 99%
CN1CCN(Cc2ccc(-c3ccc(CO[C@H]4CCC[C@@H]4NC(=O)c4cc(-c5cnn(C)c5)cnc4N)cc3)cc2)CC1	enzyme activity, inhibitor		0.1 µM		inhibition	1%
C=CC(=O)N1Cc2nc(-c3cc(-c4cc(Cl)cnc4Cl)c(F)cc3F)n(-c3ccncn3)c2C1	cell-free assay, inhibitor		1 µM		inhibition	2.7%
COc1ccc(NC(=O)Nc2ccc3c(c2)C(=O)N(C(C)CO)CC(C)C(CN(C)Cc2ccc4c(c2)OCO4)O3)cc1 (centres unmarked)	kinase activity, KinaseProfiler		0.03 µM, species human	relative to: control	remaining activity	55%
NC(=O)[C@@H](O)C[C@H]1CCc2sc3ncnc(O[C@H]4CC[C@H](N5CCOCC5)CC4)c3c21	enzyme activity, inhibitor		10 µM		inhibition	1%
CN1CC[C@@H](COc2cnc(C#N)cc2-c2ccn3nc(NC(=O)C4CC4)cc3c2)C1	enzyme activity, inhibitor		1 µM		inhibition	-41%
O=C=[N][Ru-4]123([n]4c5ccc(O)cc5c5c6c(c7cc(F)c[n+]1c7c54)C(=O)NC6=O)[S+]1CC[S+]2CC[S+]3CC1 (centres unmarked)	enzyme activity		100 nM, human enzyme, with: 10 µM ATP	relative to: untreated	remaining activity	102%
Nc1ncc(-c2cc(-c3cnn(CC(F)(F)F)c3)ncc2F)nc1C(=O)NC1CNCC(F)C1 (centres unmarked)	enzyme activity		1 µM	relative to: DMSO control	remaining activity	90.1%
O=C(Cc1ccc(OCc2ccccc2)cc1)NC1(C(=O)O)CCN(C(=O)c2ccc(-c3cccc(Cl)c3)cc2)CC1	enzyme activity, inhibitor		10 µM		activity vs control	119%
COc1c(OCCCN2CCOCC2)ccc2c1N=C(NC(=O)c1cnc(N)nc1)N1CCN=C21	kinase activity, inhibitor		1 µM	relative to: untreated control	remaining activity	127%
CCCCCC=CC=C1C(=O)C=CC1CC=CCCCC(=O)O (centres unmarked)	IA-probe cysteine labelling, covalent modifier, competitive isoTOP-ABPP	Ramos proteome	100 µM, in vitro	relative to: DMSO over compound, higher = stronger blockade	isoTOP-ABPP ratio	15

Repeated from above:
Compound	assay	system	setting	scale	endpoint	result
NC(=O)[C@@H](O)C[C@H]1CCc2sc3ncnc(O[C@H]4CC[C@H](N5CCOCC5)CC4)c3c21	enzyme activity, inhibitor		10 µM		inhibition	1%
